Assay results from different studies.
Lines come from different studies, so protocols differ. ± marks the error that the study gave.
SIRT3: NAD-dependent protein deacetylase sirtuin-3, mitochondrial (SIRT3, Homo sapiens, UniProt Q9NTG7)
UniProt Q9NTG7, sequence (whole entry, looked up): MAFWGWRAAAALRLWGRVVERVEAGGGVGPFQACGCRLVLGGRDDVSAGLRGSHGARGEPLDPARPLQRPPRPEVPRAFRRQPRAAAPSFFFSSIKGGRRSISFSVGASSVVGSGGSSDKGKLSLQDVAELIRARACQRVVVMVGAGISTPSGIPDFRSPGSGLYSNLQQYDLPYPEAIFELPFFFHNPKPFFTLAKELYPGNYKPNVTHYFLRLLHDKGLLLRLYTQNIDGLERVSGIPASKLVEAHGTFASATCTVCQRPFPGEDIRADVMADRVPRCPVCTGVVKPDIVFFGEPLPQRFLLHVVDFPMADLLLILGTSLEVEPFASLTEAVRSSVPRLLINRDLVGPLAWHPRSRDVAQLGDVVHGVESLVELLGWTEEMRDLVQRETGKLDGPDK
AMY2: Pancreatic alpha-amylase (AMY2, Sus scrofa, UniProt P00690)
UniProt P00690, sequence (whole entry, looked up): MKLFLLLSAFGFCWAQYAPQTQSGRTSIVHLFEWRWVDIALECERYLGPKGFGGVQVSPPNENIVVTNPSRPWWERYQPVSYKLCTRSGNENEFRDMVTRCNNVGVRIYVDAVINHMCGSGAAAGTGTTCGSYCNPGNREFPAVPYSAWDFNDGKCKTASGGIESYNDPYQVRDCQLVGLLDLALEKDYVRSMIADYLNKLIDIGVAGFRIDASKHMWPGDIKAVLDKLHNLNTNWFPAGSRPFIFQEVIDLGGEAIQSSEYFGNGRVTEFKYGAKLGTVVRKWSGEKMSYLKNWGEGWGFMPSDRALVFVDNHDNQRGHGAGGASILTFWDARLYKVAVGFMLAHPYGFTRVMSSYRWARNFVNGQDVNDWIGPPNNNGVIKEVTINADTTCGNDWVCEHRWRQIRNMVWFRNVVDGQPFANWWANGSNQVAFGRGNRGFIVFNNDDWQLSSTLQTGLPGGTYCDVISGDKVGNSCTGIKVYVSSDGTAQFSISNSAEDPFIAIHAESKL
UniProt Q9UPE1, sequence (whole entry, looked up): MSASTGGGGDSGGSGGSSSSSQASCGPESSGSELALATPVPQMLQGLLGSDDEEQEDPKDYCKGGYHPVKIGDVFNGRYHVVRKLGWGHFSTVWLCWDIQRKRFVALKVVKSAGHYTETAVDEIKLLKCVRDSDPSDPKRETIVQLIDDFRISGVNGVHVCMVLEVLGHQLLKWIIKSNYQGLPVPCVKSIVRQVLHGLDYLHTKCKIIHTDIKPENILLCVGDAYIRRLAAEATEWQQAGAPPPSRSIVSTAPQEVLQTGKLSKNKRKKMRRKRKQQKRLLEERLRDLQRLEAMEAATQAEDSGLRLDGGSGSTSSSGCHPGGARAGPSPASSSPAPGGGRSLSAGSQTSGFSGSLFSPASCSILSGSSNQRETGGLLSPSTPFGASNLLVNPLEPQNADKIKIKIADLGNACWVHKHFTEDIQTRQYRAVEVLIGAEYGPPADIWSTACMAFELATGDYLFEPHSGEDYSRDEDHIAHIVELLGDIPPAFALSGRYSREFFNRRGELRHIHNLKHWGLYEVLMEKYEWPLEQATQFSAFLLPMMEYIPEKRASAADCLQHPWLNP
UniProt Q9NZQ7, sequence (whole entry, looked up): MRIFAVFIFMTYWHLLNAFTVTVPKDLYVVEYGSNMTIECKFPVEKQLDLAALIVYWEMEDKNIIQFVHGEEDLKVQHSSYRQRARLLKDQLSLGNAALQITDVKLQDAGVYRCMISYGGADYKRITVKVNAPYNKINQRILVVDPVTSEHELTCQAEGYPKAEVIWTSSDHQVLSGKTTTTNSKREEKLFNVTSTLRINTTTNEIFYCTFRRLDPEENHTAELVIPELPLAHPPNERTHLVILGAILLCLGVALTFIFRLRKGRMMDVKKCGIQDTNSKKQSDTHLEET
UniProt P05771, sequence (whole entry, looked up): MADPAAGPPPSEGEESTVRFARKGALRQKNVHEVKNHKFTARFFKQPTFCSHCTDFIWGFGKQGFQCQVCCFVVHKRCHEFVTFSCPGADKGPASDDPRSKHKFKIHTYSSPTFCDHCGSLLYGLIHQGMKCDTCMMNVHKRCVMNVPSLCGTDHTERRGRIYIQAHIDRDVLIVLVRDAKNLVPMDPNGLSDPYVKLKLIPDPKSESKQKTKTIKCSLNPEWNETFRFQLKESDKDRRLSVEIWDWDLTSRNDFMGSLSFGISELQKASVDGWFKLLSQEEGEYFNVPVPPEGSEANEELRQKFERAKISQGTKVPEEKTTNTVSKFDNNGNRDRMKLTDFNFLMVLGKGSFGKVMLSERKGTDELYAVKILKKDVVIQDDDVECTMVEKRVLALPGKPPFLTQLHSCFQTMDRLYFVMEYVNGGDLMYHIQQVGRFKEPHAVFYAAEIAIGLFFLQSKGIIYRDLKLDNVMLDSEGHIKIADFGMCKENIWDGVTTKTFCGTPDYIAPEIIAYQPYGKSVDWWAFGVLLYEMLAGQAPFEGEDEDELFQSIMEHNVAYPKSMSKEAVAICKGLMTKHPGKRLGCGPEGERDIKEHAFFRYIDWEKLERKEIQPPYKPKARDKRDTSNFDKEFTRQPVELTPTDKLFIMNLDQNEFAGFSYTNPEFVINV
UniProt P28566, sequence (whole entry, looked up): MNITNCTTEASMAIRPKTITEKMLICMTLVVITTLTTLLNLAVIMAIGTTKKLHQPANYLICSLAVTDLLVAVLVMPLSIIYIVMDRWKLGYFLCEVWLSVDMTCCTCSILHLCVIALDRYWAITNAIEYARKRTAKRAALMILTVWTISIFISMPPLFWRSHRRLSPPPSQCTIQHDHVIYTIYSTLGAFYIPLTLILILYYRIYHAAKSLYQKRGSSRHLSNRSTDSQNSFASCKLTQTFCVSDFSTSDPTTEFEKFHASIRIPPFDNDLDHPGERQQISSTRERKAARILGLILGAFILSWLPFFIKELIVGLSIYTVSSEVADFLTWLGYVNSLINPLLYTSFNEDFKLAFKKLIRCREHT
UniProt P28222, sequence (whole entry, looked up): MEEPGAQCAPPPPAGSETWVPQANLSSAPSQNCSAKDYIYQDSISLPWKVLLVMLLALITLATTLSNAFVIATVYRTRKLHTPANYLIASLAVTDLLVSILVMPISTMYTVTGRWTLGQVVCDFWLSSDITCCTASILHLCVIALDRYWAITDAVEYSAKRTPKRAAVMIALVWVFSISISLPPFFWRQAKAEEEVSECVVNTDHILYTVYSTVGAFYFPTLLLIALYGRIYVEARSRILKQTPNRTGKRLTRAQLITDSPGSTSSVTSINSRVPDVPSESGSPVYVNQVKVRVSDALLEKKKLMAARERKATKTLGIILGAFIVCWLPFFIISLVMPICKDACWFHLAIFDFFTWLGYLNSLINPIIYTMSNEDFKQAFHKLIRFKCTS
UniProt P43116, sequence (whole entry, looked up): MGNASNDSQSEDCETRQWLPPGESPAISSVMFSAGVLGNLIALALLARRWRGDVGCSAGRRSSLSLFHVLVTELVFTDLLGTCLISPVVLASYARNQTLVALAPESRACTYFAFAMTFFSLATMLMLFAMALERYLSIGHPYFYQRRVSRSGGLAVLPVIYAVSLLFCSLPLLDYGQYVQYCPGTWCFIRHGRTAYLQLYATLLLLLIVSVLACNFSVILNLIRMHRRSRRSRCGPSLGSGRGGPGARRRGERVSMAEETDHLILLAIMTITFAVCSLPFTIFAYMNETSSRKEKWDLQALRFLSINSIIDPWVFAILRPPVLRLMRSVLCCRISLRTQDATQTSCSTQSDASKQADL
UniProt P18031, sequence (whole entry, looked up): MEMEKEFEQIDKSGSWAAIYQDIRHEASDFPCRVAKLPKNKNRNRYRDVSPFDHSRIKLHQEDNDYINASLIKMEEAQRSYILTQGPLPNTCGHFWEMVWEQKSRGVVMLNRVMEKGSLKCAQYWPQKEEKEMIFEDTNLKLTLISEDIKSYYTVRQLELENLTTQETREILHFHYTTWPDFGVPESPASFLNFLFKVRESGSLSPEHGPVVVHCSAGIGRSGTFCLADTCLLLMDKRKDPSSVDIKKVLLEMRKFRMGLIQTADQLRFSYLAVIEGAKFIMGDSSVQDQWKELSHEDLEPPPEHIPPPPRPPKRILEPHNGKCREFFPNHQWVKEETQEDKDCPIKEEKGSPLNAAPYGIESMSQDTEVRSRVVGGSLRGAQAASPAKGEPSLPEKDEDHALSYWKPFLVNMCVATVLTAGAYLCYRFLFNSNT

| SMILES | tested on | assay | conditions | how to read | endpoint | value |
| --- | --- | --- | --- | --- | --- | --- |
| CCCCCCCCCCCCNC(=S)NCCCC[C@H](NC(=O)OCc1ccccc1)C(=O)N[C@@H](Cc1c[nH]c2ccccc12)C(=O)N[C@@H](CC(C)C)C(N)=O | SIRT3 | enzyme activity, inhibitor | 10 µM | – | inhibition | 18% |
| Cc1ccc(CNC(=O)C(CCc2ccccc2)NC(=O)C(NC(=O)Cc2cccc(Oc3ccccc3)c2)C(C)O)cc1 (stereo not drawn) | chymotrypsin | enzyme activity, inhibitor | 100 µM | – | inhibition | 1% |
| CCCCCCCCCCCCNC(=S)NCCCC[C@H](NC(=O)OCc1ccccc1)C(=O)N[C@@H](CCCNC(=N)N)C(=O)N[C@@H](CCCNC(=N)N)C(N)=O | SIRT3 | enzyme activity, inhibitor | 1 µM | – | inhibition | 48% |
| O=C1c2sc(-c3ccc(N4CCC(CO)CC4)nc3F)nc2CCN1c1cccnc1 | Prostaglandin E2 receptor EP2 subtype (PTGER2, Homo sapiens, UniProt P43116) | ligand displacement, radioligand | 1 µM | – | inhibition | 30% |
| CC1Cc2ccccc2N1C(=O)CN1CCN(Cc2ccccc2)CC1 (stereo not drawn) | 5-hydroxytryptamine receptor 1E (HTR1E, Homo sapiens, UniProt P28566) | radioligand binding | concentration not given, together with: [3H]5-HT | – | inhibition | -6.5% |
| COc1ccc(NC(=O)Nc2ccccc2)c(OC)c1 | SRSF protein kinase 3 (SRPK3, Homo sapiens, UniProt Q9UPE1) | binding, KINOMEscan competitive binding | concentration not given | – | inhibition | 58% |
| Cc1ccc(N(O)/N=N/c2ccc(S(=O)(=O)Nc3nccs3)cc2)cc1 | AMY2 | enzyme activity, inhibitor | 240 µg/mL | – | inhibition | 36.8% |
| C=CS(=O)(=O)Nc1ccc2nc(NCCCCCN(C)C)nc(NCCCCCCN(C)C)c2c1 | Histone-lysine N-methyltransferase SETDB1, triple Tudor domain (SETDB1, Homo sapiens, UniProt Q15047) | – | 33.33 µM | – | inhibition | 123% |
| Cc1cccc(O[C@H]2CCC[C@@H](C(C)CNCc3ccncc3)C2)c1 (relative stereo) | Protein kinase C beta type, isoform beta-I (PRKCB, Homo sapiens, UniProt P05771) | kinome profiling | 10 µM | – | inhibition | 1% |
| COc1ccc(C[C@H](NC(=O)Cc2cccc(Oc3ccccc3)c2)C(=O)N[C@@H](Cc2c[nH]c3ccccc23)C(=O)NCc2ccc(C)cc2)cc1OC | chymotrypsin | enzyme activity, inhibitor | 100 µM | – | inhibition | 1% |
| Brc1ccccc1-c1nnc(CSc2nnnn2-c2ccccc2)o1 | 5-hydroxytryptamine receptor 1B (HTR1B, Homo sapiens, UniProt P28222) | ligand displacement, radioligand | 10 µM | – | inhibition | 5% |
| Cc1ncsc1-c1ccc(C(C)NC(=O)C2CC(O)CN2C(=O)C(NC(=O)CCCCCCCCCCN2CCCC(Nc3ncc(Cl)c(Nc4ccccc4S(=O)(=O)C(C)C)n3)C2)C(C)(C)C)cc1 (stereo not drawn) | 22Rv1 | RNA-seq, item: ZNF740 mRNA | concentration not given | baseline: DMSO | log2 fold change | -1.74 |
| COc1c(Br)c(O)c2c(c1Br)OC(c1ccccc1)CC2=O (stereo not drawn) | AMY2 | enzyme activity, inhibitor | 50 µM, together with: CNP-G3 substrate | – | inhibition | 20.8 ± 4.55% |
| C[Si](C)(C)C[C@@H](CN)CC(=O)O | AMPA receptor, rat | binding, radioligand binding | 75 µM, together with: [3H]AMPA | – | inhibition | 5% |
| CSCC[C@H](NC(=O)[C@H](Cc1ccc(O)cc1)NC(=O)[C@H](Cc1c[nH]c2ccccc12)NC(=O)[C@H](C)NC(=O)[C@H](Cc1c[nH]c2ccccc12)NC(=O)[C@H](Cc1c[nH]c2ccccc12)NC(=O)[C@H](CCCCN)NC(C)=O)C(N)=O | Programmed cell death 1 ligand 1, with PD-1 (CD274, Homo sapiens, UniProt Q9NZQ7) | PD-1/PD-L1 binding, ELISA | 10 µM | – | inhibition | 34.7 ± 11.4% |
| C/C=C/C(=O)Nc1ccc2nc(NCCCCCN(C)C)nc(NCCCCCCN(C)C)c2c1 | Histone-lysine N-methyltransferase SETDB1 (SETDB1, Homo sapiens, UniProt Q15047) | enzyme activity, inhibitor, radiometric | 50 µM | – | inhibition | 15% |
| O=C(Nc1ccc(C(F)F)cc1)[C@H](CC1CCCCC1)Nc1nn2c(=O)ccnc2s1 | Tyrosine-protein phosphatase non-receptor type 1 (PTPN1, Homo sapiens, UniProt P18031) | enzyme activity, inhibitor | 10 µM | – | inhibition | -9% |
| C[C@H](NC(=O)[C@H](CC(=O)NCC(C)(C)C)NC(=O)C(=O)c1c[nH]c2ccccc12)C(=O)NCc1ccc(F)cc1F | chymotrypsin | enzyme activity, inhibitor | 100 µM | – | inhibition | 36% |

For quick reference, copied from above:
| SMILES | tested on | assay | conditions | how to read | endpoint | value |
| --- | --- | --- | --- | --- | --- | --- |
| Cc1ccc(N(O)/N=N/c2ccc(S(=O)(=O)Nc3nccs3)cc2)cc1 | AMY2 | enzyme activity, inhibitor | 240 µg/mL | – | inhibition | 36.8% |
